Experimental data collected from several papers.
Every numbered part comes from another study and shows a few of its results, in no order.
Sequence of UniProt P10721 (whole entry, unmodified, looked up): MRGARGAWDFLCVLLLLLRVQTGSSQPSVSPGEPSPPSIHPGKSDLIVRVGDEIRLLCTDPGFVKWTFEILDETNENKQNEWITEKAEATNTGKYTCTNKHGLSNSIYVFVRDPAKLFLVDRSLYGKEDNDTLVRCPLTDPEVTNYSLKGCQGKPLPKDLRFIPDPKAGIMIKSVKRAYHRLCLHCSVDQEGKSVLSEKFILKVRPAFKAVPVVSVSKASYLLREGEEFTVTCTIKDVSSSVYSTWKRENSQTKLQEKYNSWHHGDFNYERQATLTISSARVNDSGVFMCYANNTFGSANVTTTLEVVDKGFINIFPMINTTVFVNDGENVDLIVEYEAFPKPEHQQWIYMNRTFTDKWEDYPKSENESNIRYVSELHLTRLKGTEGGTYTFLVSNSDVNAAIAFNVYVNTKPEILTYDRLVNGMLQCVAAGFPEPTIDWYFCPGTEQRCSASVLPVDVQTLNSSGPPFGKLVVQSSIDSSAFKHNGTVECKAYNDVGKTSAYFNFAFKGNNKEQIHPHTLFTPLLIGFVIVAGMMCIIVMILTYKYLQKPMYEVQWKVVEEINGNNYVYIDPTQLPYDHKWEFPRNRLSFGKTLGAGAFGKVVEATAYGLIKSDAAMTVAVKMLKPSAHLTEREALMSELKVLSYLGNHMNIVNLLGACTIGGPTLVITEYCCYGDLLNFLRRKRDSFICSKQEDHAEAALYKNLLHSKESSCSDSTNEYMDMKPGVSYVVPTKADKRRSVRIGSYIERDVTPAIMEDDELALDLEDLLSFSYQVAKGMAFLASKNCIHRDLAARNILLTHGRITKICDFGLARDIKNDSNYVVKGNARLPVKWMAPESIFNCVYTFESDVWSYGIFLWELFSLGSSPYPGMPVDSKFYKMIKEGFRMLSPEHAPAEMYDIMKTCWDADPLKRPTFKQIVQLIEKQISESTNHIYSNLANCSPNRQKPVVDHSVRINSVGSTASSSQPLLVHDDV
Sequence of UniProt Q9Y2H1 (whole entry, looked up): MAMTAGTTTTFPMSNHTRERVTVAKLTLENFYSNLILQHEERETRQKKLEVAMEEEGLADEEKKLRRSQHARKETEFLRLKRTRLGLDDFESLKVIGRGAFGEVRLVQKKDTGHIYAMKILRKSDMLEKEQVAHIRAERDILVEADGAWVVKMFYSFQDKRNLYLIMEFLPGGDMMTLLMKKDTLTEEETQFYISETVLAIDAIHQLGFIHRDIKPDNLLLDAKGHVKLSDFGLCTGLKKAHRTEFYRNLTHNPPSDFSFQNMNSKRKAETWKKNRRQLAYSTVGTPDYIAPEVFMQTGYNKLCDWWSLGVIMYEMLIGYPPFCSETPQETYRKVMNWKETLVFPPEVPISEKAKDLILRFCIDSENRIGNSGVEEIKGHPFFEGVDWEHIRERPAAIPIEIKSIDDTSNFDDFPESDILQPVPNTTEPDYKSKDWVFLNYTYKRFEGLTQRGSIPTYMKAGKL
Sequence of UniProt O15146 (whole entry, looked up): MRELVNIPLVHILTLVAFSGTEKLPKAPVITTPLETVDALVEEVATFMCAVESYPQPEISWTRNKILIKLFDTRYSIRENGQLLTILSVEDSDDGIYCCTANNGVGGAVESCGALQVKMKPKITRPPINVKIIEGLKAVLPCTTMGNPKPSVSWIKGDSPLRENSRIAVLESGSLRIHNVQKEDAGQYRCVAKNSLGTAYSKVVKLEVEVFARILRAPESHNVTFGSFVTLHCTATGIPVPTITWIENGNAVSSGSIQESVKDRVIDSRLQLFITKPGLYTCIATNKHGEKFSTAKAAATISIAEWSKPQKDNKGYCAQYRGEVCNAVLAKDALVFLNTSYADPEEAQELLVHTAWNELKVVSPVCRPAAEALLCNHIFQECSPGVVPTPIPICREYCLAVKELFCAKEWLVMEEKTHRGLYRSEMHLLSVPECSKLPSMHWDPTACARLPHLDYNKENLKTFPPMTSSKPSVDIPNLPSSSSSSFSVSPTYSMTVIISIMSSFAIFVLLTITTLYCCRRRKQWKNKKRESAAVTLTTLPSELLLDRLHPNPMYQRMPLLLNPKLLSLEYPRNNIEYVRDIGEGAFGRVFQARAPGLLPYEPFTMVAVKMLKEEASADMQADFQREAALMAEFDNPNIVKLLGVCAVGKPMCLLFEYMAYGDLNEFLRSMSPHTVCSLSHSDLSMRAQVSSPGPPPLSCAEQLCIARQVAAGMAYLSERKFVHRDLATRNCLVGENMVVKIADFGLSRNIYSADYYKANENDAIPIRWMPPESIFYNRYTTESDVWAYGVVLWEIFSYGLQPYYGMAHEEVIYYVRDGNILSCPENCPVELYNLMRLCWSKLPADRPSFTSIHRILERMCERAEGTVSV
Sequence of UniProt Q9NY57 (whole entry, looked up): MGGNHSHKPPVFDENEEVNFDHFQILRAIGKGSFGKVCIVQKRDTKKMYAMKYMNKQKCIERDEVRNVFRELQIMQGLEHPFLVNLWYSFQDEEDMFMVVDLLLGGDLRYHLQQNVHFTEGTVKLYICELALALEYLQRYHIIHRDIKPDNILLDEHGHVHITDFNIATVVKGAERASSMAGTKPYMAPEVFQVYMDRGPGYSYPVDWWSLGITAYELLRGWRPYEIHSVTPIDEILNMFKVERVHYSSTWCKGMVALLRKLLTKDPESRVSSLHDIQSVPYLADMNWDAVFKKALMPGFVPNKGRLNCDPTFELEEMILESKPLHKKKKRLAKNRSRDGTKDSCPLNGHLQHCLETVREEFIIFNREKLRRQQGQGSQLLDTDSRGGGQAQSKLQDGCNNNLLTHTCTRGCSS

Study 1
Structure (SMILES): COc1ccc2[nH]c3c4[nH]c5ccc(OC)cc5c4c4c(c3c2c1)C(=O)NC4=O
Tested at: 1 µM
target | assay | conditions | scale | remaining binding [%]
MAP3K13 (Homo sapiens, UniProt O43283) | competitive binding | LZK | – | 77
STK33 (Homo sapiens, UniProt Q9BYT3) | competitive binding panel | – | relative to: vehicle | 33
FLT1 (Homo sapiens, UniProt P17948) | competitive binding panel | – | relative to: vehicle | 79
CHUK (Homo sapiens, UniProt O15111) | competitive binding | IKK-alpha | – | 89
IRAK1 (Homo sapiens, UniProt P51617) | competitive binding panel | – | relative to: vehicle | 94
MAPK10 (Homo sapiens, UniProt P53779) | competitive binding | JNK3 | – | 31
MKNK1 (Homo sapiens, UniProt Q9BUB5) | competitive binding panel | – | relative to: vehicle | 92
IKBKB (Homo sapiens, UniProt O14920) | competitive binding | IKK-beta | – | 87
STK38L (Homo sapiens, UniProt Q9Y2H1) | competitive binding panel, item: NDR2 | – | relative to: vehicle | 72

Study 2
Species: mouse
Sample: microsomes or S9
Tested at: 2 µM
Time: 0.5 h
SMILES | remaining compound
CNC1=C(c2cc(Br)ccn2)C(=O)C(c2cccc(Cl)c2)O1 (stereo not drawn) | > 100%
Cc1ccc(-c2ccc(C(CN3CCCC3)N(C)C(=O)CN3C(=O)COc4cc(Cl)c(Cl)cc43)cc2)cn1 (stereo not drawn) | 58.2%
CC(c1cncs1)N(C)C(=O)c1cnn(C(C)C)c1 (stereo not drawn) | 40.8%
c1ccc(-n2nnnc2Oc2ccc(-c3nc4ccccc4s3)cc2)cc1 | 97.1%
Cc1cccc(-c2c(-n3cncn3)nc3ccccc3c2O)c1 | 89.1%
CC(=O)Nc1nc2ccc(-c3nn(C(C)C)c4nc(N)ncc34)cc2s1 | 73.7%
CCn1nc(C)c(CNC(=O)NCCCOC)c1C | 98.4%
Cc1nnc(C)n1/N=C/c1ccc(Cl)cc1Cl | 90%
COCC1CCCN(c2nnc(-c3n[nH]c4c3CCCC4)n2C)CC1 (stereo not drawn) | 23.7%
O=C(C[C@H]1CCC[C@@H](N2CCCC2)[C@@H]1C(=O)c1cccs1)c1cccs1 | 0.172%
Cc1ccc(-n2ccnc2S(=O)(=O)Cc2noc(C)n2)c(C)c1 | 0.0743%

Study 3
SMILES: N#CC1(c2ccccn2)CCN(Cc2cc(C(=O)N3CCCC3)c(=O)n3ccccc23)CC1
Tested at: 1 µM
target | assay | remaining binding [%]
CDC42BPG (Homo sapiens, UniProt Q6DT37) | competition binding | 88
MARK1 (Homo sapiens, UniProt Q9P0L2) | cell-free assay, competition with immobilised ligand | 100
ACVRL1 (Homo sapiens, UniProt P37023) | cell-free assay, competition with immobilised ligand | 100
TESK1 (Homo sapiens, UniProt Q15569) | cell-free assay, competition with immobilised ligand | 90
KIT (Homo sapiens, UniProt P10721, V559D) | cell-free assay, competition with immobilised ligand | 100
STK32B (Homo sapiens, UniProt Q9NY57) | cell-free assay, competition with immobilised ligand | 100
MAPK8 (Homo sapiens, UniProt P45983) | cell-free assay, competition with immobilised ligand | 96
eIF-2-alpha kinase GCN2, C-terminal kinase domain (EIF2AK4, Homo sapiens, UniProt Q9P2K8, S808G) | cell-free assay, competition with immobilised ligand | 78
CAMK2G (Homo sapiens, UniProt Q13555) | cell-free assay, competition with immobilised ligand | 100
Mast/stem cell growth factor receptor Kit, autoinhibited (KIT, Homo sapiens, UniProt P10721) | cell-free assay, competition with immobilised ligand | 100
TGFBR1 (Homo sapiens, UniProt P36897) | cell-free assay, competition with immobilised ligand | 72
MAP3K20 (Homo sapiens, UniProt Q9NYL2) | cell-free assay, competition with immobilised ligand | 95
EIF2AK1 (Homo sapiens, UniProt Q9BQI3) | cell-free assay, competition with immobilised ligand | 83
NUAK1 (Homo sapiens, UniProt O60285) | cell-free assay, competition with immobilised ligand | 86
CAMK1G (Homo sapiens, UniProt Q96NX5) | cell-free assay, competition with immobilised ligand | 100
Tyrosine-protein kinase ABL1, non-phosphorylated (ABL1, Homo sapiens, UniProt P00519, F317I) | binding, competition with immobilised ligand | 87
MAK (Homo sapiens, UniProt P20794) | cell-free assay, competition with immobilised ligand | 93
ULK1 (Homo sapiens, UniProt O75385) | cell-free assay, competition with immobilised ligand | 91
CSNK1G3 (Homo sapiens, UniProt Q9Y6M4) | cell-free assay, competition with immobilised ligand | 76
MUSK (Homo sapiens, UniProt O15146) | cell-free assay, competition with immobilised ligand | 90
ZAP70 (Homo sapiens, UniProt P43403) | cell-free assay, competition with immobilised ligand | 100
PIP4K2C (Homo sapiens, UniProt Q8TBX8) | cell-free assay, competition with immobilised ligand | 58
MAP3K12 (Homo sapiens, UniProt Q12852) | cell-free assay, competition with immobilised ligand | 100
SLK (Homo sapiens, UniProt Q9H2G2) | cell-free assay, competition with immobilised ligand | 100
ALK (Homo sapiens, UniProt Q9UM73, L1196M) | cell-free assay, competition with immobilised ligand | 100

Study 4
Target: Serine/threonine-protein kinase WNK2 (WNK2, Homo sapiens, UniProt Q9Y3S1)
Sequence of UniProt Q9Y3S1 (whole entry, looked up): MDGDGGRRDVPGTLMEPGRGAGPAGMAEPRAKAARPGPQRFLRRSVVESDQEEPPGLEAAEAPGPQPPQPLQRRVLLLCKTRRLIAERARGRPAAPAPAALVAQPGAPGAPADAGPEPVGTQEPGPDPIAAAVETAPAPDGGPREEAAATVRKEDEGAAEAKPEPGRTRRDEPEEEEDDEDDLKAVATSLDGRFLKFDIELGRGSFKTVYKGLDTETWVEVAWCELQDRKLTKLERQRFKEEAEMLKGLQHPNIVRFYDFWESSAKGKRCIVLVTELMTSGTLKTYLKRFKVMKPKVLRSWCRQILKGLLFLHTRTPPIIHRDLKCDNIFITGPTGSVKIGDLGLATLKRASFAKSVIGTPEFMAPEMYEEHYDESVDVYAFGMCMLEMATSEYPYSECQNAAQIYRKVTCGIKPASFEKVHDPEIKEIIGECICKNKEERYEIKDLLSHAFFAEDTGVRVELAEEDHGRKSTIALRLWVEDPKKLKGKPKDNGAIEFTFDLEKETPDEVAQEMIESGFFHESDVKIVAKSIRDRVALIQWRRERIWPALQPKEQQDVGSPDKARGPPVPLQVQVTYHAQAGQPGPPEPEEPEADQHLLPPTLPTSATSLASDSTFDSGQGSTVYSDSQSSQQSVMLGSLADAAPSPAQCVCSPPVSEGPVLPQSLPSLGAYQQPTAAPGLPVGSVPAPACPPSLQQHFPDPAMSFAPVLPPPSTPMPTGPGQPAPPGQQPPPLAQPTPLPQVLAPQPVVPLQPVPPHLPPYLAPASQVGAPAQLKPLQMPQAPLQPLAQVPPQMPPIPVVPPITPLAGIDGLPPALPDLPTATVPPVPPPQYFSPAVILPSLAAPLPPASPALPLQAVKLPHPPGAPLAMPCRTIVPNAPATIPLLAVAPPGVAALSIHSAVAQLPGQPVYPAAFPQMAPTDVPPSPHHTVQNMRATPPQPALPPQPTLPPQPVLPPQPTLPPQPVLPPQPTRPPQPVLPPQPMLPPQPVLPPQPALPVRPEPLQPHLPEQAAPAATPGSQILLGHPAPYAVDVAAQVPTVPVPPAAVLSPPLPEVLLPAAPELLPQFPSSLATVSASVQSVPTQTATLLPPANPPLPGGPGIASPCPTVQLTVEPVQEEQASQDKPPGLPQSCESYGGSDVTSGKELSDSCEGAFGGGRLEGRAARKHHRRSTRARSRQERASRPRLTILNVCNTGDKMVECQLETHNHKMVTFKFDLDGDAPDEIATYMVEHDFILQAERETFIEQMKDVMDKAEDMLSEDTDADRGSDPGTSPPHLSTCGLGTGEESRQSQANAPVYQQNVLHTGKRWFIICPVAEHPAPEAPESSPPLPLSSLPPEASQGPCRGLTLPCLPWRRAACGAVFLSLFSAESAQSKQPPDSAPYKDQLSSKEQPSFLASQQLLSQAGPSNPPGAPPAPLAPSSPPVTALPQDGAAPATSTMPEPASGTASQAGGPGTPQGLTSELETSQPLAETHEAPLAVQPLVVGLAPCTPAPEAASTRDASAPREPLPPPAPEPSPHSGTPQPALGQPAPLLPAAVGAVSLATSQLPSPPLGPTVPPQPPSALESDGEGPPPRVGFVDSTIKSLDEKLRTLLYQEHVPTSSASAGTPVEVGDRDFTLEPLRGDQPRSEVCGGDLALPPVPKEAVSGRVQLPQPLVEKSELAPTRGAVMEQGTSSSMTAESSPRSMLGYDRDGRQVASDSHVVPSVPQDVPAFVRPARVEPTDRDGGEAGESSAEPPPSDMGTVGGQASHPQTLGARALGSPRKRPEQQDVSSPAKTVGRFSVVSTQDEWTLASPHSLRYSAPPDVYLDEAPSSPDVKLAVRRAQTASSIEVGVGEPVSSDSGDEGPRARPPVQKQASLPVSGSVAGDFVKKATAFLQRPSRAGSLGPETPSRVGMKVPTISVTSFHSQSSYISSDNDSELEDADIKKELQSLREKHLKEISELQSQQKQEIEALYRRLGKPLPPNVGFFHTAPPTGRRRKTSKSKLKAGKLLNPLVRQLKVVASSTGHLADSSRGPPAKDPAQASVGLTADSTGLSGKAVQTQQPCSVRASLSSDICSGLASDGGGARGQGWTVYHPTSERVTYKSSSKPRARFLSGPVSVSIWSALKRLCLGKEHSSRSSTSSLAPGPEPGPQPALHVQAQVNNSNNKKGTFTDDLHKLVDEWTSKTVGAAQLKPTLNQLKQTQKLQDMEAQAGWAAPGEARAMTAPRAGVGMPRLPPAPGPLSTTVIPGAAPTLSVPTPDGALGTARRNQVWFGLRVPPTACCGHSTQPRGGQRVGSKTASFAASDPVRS
Read-out: enzyme activity
Action: inhibitor
Tested at: 0.5 µM
Relative to: control
SMILES | remaining activity [%]
CS(=O)(=O)CCNCc1ccc(-c2ccc3ncnc(Nc4ccc(OCc5cccc(F)c5)c(Cl)c4)c3c2)o1 | 102
O=C(Nc1ccc(Cl)cc1)c1ccccc1NCc1ccncc1 | 101
CCOc1cc2ncnc(Nc3cccc(Br)c3)c2cc1OCC | 95.8
CN(C)CCCn1cc(C2=C(c3c[nH]c4ccccc34)C(=O)NC2=O)c2ccccc21 | 107
COc1cc2ncnc(N3CCN(C(=O)Nc4ccc(Oc5ccccc5)cc4)CC3)c2cc1OC | 102
COc1cc2ncc(-c3ccccc3)nc2cc1OC | 104

Some of these lines once more (study 3):
target | assay | remaining binding [%]
MAK (Homo sapiens, UniProt P20794) | cell-free assay, competition with immobilised ligand | 93
ULK1 (Homo sapiens, UniProt O75385) | cell-free assay, competition with immobilised ligand | 91
CSNK1G3 (Homo sapiens, UniProt Q9Y6M4) | cell-free assay, competition with immobilised ligand | 76
MUSK (Homo sapiens, UniProt O15146) | cell-free assay, competition with immobilised ligand | 90
ZAP70 (Homo sapiens, UniProt P43403) | cell-free assay, competition with immobilised ligand | 100
PIP4K2C (Homo sapiens, UniProt Q8TBX8) | cell-free assay, competition with immobilised ligand | 58
MAP3K12 (Homo sapiens, UniProt Q12852) | cell-free assay, competition with immobilised ligand | 100
SLK (Homo sapiens, UniProt Q9H2G2) | cell-free assay, competition with immobilised ligand | 100
